Assay results of several laboratories.
Each line is one published result; not all experiments were run side by side. Numbers after ± are the reported error.
Ectonucleoside triphosphate diphosphohydrolase 1: Ectonucleoside triphosphate diphosphohydrolase 1 (Homo sapiens, UniProt P49961)
CDC25B: M-phase inducer phosphatase 2 (CDC25B, Homo sapiens, UniProt P30305)
KDM1A: Lysine-specific histone demethylase 1A (KDM1A, Homo sapiens, UniProt O60341)
Voltage-dependent calcium channel subunit alpha-2/delta-1: Voltage-dependent calcium channel subunit alpha-2/delta-1 (Rattus norvegicus, UniProt P54290)
DRD3: D(3) dopamine receptor (DRD3, Homo sapiens, UniProt P35462)
GAA: Lysosomal alpha-glucosidase (GAA, Homo sapiens, UniProt P10253)
Si: Sucrase-isomaltase, intestinal (Si, Rattus norvegicus, UniProt P23739)
PARP1: Poly [ADP-ribose] polymerase 1 (PARP1, Homo sapiens, UniProt P09874)

Structure (SMILES) | target or system | assay | system | setting | how to read | measurement | result
C[C@@H](N)C1CCN(S(=O)(=O)c2cccc3cnccc23)CC1 | ROCK1 (Homo sapiens, UniProt Q13464) | cell-free assay, competition with immobilised ligand |  | 10 µM |  | inhibition | > 95%
O=C(O)c1cc(S(=O)(=O)Nc2ccc(Br)cc2)ccc1Cl | Ectonucleoside triphosphate diphosphohydrolase 1 | enzyme activity, inhibitor, absorbance |  | 100 µM |  | inhibition | 3%
N#Cc1c(F)c(Cl)c2nc(SCc3ccccc3)nc(N)c2c1F | CDC25B | enzyme activity, inhibitor, fluorescence |  | 20 µg/mL |  | inhibition | 99.7%
CC(C)(C)CCN1C[C@@H]2[C@@H](CNC(=O)c3cc(Cl)cc(Cl)c3)[C@@H]2C1.Cl | CACNA1H (Homo sapiens, UniProt O95180) | peak calcium current, whole-cell patch clamp | HEK-293T transfected | 0.1 µM |  | inhibition | ~64%
COCCOC(=O)Nc1ccc2c(c1)c(Cc1ccc(C(=O)NS(=O)(=O)c3ccc(C(F)(F)F)cc3)cc1OC)cn2C | Tumor necrosis factor receptor superfamily member 1A (Homo sapiens, UniProt P19438) | NF-κB reporter gene, luciferase reporter | HEK293 cells | up to 250 nM, added: TNF 10 ng/mL |  | inhibition | 35 to 42%
CC(=O)c1cnc(N)nc1N1CC[C@H]1c1nn2ccc(Cl)c2c(=O)n1-c1ccccc1 | KCND3 (Homo sapiens, UniProt Q9UK17) | ion current, inhibitor |  | 3 µM |  | inhibition | < 10%
Cc1ccnc(-c2cc(C(=O)NCCCCn3cc(CN(CC(N)=O)C(=O)CN(CCCCN)C(=O)CN(CCCCN)C(=O)CN(C(=O)CN(CC(C)C)C(=O)CN(CC(C)C)C(=O)CN(CCc4c[nH]c5ccccc45)C(=O)CN(CCCCN)C(=O)C(N)CCCCNC(=O)CCCCCNc4ncnc5[nH]cnc45)C(C)c4ccccc4)nn3)ccn2)c1 (centres unmarked) | Coelenterazine h 2-monooxygenase (Renilla reniformis, UniProt P27652) | luciferase activity | transfected HeLa | 1 µM, irradiated 30 min |  | inhibition | no inhibition
COc1cc(-c2nc(SCc3cn(Cc4ccccc4Cl)nn3)nc(Nc3ccc(C)cc3)c2C#N)cc(OC)c1OC | KDM1A | enzyme activity, inhibitor, fluorescence |  | 1 µM |  | inhibition | 2.2%
CCN(CC)CCSC(=S)N1CCN(C(=O)/C=C/c2coc3cc(F)ccc3c2=O)CC1 | tomato spotted wilt virus | viral infection, half-leaf method | Nicotiana glutinosa | 500 µg/mL |  | curative effect | 60.6 ± 2.6%
O=C(Nc1ccccc1O)c1ccc(-c2ccc(Cl)cc2Cl)o1 | Heat shock protein 90, N-terminal domain (Plasmodium falciparum, UniProt Q8IC05) | ligand displacement, FP |  | 10 µM |  | inhibition | 32%
C[Si](C)(C)C[C@H](CN)CC(=O)O | Voltage-dependent calcium channel subunit alpha-2/delta-1 | [3H]gabapentin binding | rat cerebral cortex membranes | 0.39 µM, added: [3H]gabapentin 20 nM |  | inhibition | 31%
CN(Cc1ccccc1)C(=O)c1cccc(S(=O)(=O)N2CCOCC2)c1 | Ectonucleoside triphosphate diphosphohydrolase 1 | enzyme activity, inhibitor, absorbance |  | 100 µM |  | inhibition | 16%
CN1C(=O)[C@@H](Cc2ccc(O)cc2)NC(=O)CNC(=O)[C@H](Cc2ccc3ccccc3c2)NC(=O)[C@H](CCCNC(=N)N)NC(=O)[C@H]1CCCNC(=O)c1ccc(CNC(=O)CN2CCN(CC(=O)O)CCN(CC(=O)O)CCN(CC(=O)O)CC2)cc1 [gallium-68 labelled] |  |  | adult reference man, from C57BL/6 mice data, osteogenic cells |  |  | absorbed dose coefficient | 0.00801 mGy/MBq
NC(=O)c1ccc(C(=O)NOCc2ccc(Sc3cccc(Cl)c3)c(C(F)(F)F)c2)cc1 | HDAC8 (Homo sapiens, UniProt Q9BY41) | cell-free assay, inhibitor |  | 100 µM |  | inhibition | 22.2%
Cn1c(=O)c(SCC(=O)NCCN2CCC(Cc3ccccc3)CC2)nc2ccccc21 | DRD3 | cell-free assay, inhibitor |  | 10 µM |  | inhibition | > 90%
N#Cc1c(F)c(Cl)c2nc(SCc3ccc(Cl)c(Cl)c3)nc(N)c2c1F | CDC25B | enzyme activity, inhibitor, fluorescence |  | 20 µg/mL |  | inhibition | 97.3%
CN(C)S(=O)(=O)c1cc(C(=O)O)ccc1NCCCCCCCC(F)(F)F | Solute carrier family 12 member 1 (SLC12A1, Homo sapiens, UniProt Q13621) | chloride influx | HEK293 transfected with SLC12A1 | 10 µM | relative to: DMSO | inhibition | -6.9 ± 7.8%
Nc1nc(Nc2ccccc2)sc1C(=O)c1ccccc1 | GSK3B (Homo sapiens, UniProt P49841) | enzyme activity, inhibitor, kinase selectivity panel |  | 10 µM |  | inhibition | inhibited
C#CCSc1nc(Sc2nnnn2-c2ccccc2)c2nnn(Cc3ccccc3Cl)c2n1 | KDM1A | enzyme activity, inhibitor, fluorescence |  | 1 µM |  | inhibition | 95.8%
Cc1ccc(Nc2nc(SCc3cn(Cc4ccccc4Cl)nn3)nc(-c3ccc(C)cc3)c2C#N)cc1 | KDM1A | enzyme activity, inhibitor, fluorescence |  | 1 µM |  | inhibition | 83.7%
O=C(O)CCC(=O)c1cccc(NS(=O)(=O)c2c[nH]c3ncccc23)c1 | Aurora kinase A (AURKA, Homo sapiens, UniProt O14965) | enzyme activity, inhibitor, radiometric |  | 10 µM |  | inhibition | 44%
C[Si]1(C[C@H](CN)CC(=O)O)CCCC1 | Voltage-dependent calcium channel subunit alpha-2/delta-1 | [3H]gabapentin binding | rat cerebral cortex membranes | 6.25 µM, added: [3H]gabapentin 20 nM |  | inhibition | 68%
O=C(c1cccc(S(=O)(=O)NC2CC2)c1)N1CCOCC1 | Ectonucleoside triphosphate diphosphohydrolase 1 | enzyme activity, inhibitor, absorbance |  | 100 µM |  | inhibition | 28%
CCNC(=O)Nc1ccc(OCCCCCCCOc2ccc(NC(=O)NCC)cc2)cc1 | Transcription antitermination protein NusB, with NusE (nusB, Bacillus subtilis, UniProt P54520) | protein-protein interaction, inhibitor, competitive ELISA |  | 25 µM, 15 min preincubation, 37 °C, added: 200 nM GST-NusE |  | inhibition | 7%
O=[N+]([O-])c1ccc(Cn2cc(Cn3cc(CO)nn3)nn2)cc1 | RAC-alpha serine/threonine-protein kinase, PH domain (AKT1, Homo sapiens, UniProt P31749) | PI(3,4,5)P3 binding, competitive SPR |  | 5 µM, PH domain 500 nM |  | inhibition | 33 ± 3%
CC(C)(C)OC(=O)NCc1cn([C@H]2O[C@H](CO)[C@@H](O)[C@H](O)[C@H]2O)nn1 | GAA | enzyme activity, inhibitor, fluorescence |  | 1.43 mM, pH 4, lysate |  | inhibition | 52%
O=C(O)c1cc(S(=O)(=O)N2CCOCC2)ccc1Cl | Ectonucleoside triphosphate diphosphohydrolase 1 | enzyme activity, inhibitor, absorbance |  | 100 µM |  | inhibition | 12%

Structure (SMILES) | target or system | assay | system | setting | how to read | measurement | result
O=C(NCc1cn([C@H]2O[C@H](CO)[C@@H](O)[C@H](O)[C@H]2O)nn1)c1ccccc1 | GAA | enzyme activity, inhibitor, fluorescence |  | 1.43 mM, pH 4, lysate |  | inhibition | 47%
CN(Cc1cc(C2CC2)on1)C(=O)c1cccc(-c2ccc3c(c2)CCO3)c1 | Acetyl-coenzyme A synthetase 2 (ACS2, Candida albicans, UniProt Q8NJN3) | enzyme activity |  | concentration not given |  | inhibition | no inhibition
CC(NC(=O)CSc1nc2c(c(-c3ccccc3)c1C#N)CN(C)CC2)c1ccccc1 (centres unmarked) | HTR1A (Homo sapiens, UniProt P08908) | ligand displacement, radioligand |  | 10 µM |  | inhibition | ≥ 50%
C=CC(C)(C)c1[nH]c2ccccc2c1C1=C(O)C(=O)C(c2c[nH]c3c(CC=C(C)C)cccc23)=C(O)C1=O | Trypanothione synthetase (Trypanosoma cruzi, UniProt Q9GT49) | enzyme activity, inhibitor, absorbance |  | 25 µM |  | inhibition | 27.7%
CCCCCCCCCCCCCCCC(=O)N[C@@H](CCCCN)C(=O)N[C@@H](CCCCN)C(=O)N[C@@H](CO)C(=O)N[C@@H](CCCNC(=N)N)C(=O)N[C@@H](C)C(=O)N[C@@H](CC(C)C)C(=O)N[C@@H](Cc1ccccc1)C(N)=O | F2R (Homo sapiens, UniProt P25116) | platelet aggregation, antagonist | human gel-filtered platelets | concentration not given, added: SFLLRN 2.5 µM |  | inhibition | inhibited
O=C(O[C@@H]1Cc2c(O)cc(O)cc2O[C@@H]1c1ccc(O)cc1)c1cc(O)c(O)c(O)c1 | Si | enzyme activity, inhibitor | rat intestinal brush border vesicles | 10 µM |  | inhibition | 83.5%
COc1ccc(-c2csc3ncnc(NCCCN4CCN(c5ccccc5)CC4)c23)cc1 | DRD3 | cell-free assay, inhibitor |  | 10 µM |  | inhibition | > 90%
COCCOCCSc1nc(N)c2c(F)c(C#N)c(F)c(F)c2n1 | CDC25B | enzyme activity, inhibitor, fluorescence |  | 20 µg/mL |  | inhibition | 3.3%
Oc1ccc(O)c(CN(CCN(Cc2ccccn2)Cc2cc(O)ccc2O)Cc2ccccn2)c1.[Br-].[Br-].[Mn+2] |  | lucigenin competition from IC50 |  | added: xanthine oxidase/hypoxanthine |  | superoxide reaction rate constant | 2.1e+08 M⁻¹ s⁻¹
COc1cc(C(=O)NC2CCC(N3CCN(CC4CCC5(CCCC5)C4)CC3)CC2)c(F)cc1Nc1ncc2c(n1)N(C1CCCC1(F)F)CC(F)(F)C(=O)N2C (centres unmarked) | FRK (Homo sapiens, UniProt P42685) | cell-free assay, TR-FRET |  | 10 µM |  | inhibition | 6.49%
COc1cccc(CSc2nc(N)c3c(F)c(C#N)c(F)c(Cl)c3n2)c1 | CDC25B | enzyme activity, inhibitor, fluorescence |  | 20 µg/mL |  | inhibition | 2.11%
OCc1ccccc1S[C@@H]1O[C@H](CO)[C@H](O)[C@H](O)[C@H]1O | SLC5A2 (Homo sapiens, UniProt P31639) | transporter uptake, inhibitor, radiometric | CHO | 10 µM |  | inhibition | 26.7%
O=C1CC(CO)NC(=O)c2ccccc21 (centres unmarked) | PARP1 | enzyme activity, inhibitor |  | 10 µM |  | inhibition | > 50%
CSc1nc(N)c2c(F)c(C#N)c(F)c(Cl)c2n1 | CDC25B | enzyme activity, inhibitor, fluorescence |  | 20 µg/mL |  | inhibition | 89.7%
N=C(N)NCCC[C@@H]1NC(=O)[C@H](Cc2c[nH]c3ccccc23)NC(=O)[C@@H](CC2CCCCC2)NC(=O)[C@@H]2CCCN2C(=O)[C@@H](NC(=O)CCc2ccccc2)CCCNC1=O |  |  | C57BL/6J mouse, plasma brain | subcutaneous, 1 mg/kg single dose |  | MRT(0-inf) | 1.85 h
N#CCSc1nc(N)c2c(F)c(C#N)c(F)c(Cl)c2n1 | CDC25B | enzyme activity, inhibitor, fluorescence |  | 20 µg/mL |  | inhibition | 73.8%
O=C(N/N=C/c1ncc[nH]1)c1cccs1 | dxs (Deinococcus radiodurans, UniProt Q9RUB5) | enzyme activity, inhibitor |  | 120 µM |  | inhibition | 24%
Cc1cc(C#N)cc(C)c1Oc1cc(Nc2ccc(C#N)cn2)nc2ccncc12 | Gag-Pol polyprotein, reverse transcriptase (gag-pol, Human immunodeficiency virus type 1 group M subtype B, UniProt P04585) | enzyme activity, inhibitor, ELISA |  | 1 µM |  | inhibition | 77.2%
CCCC[C@H](C)/C=C(C)/C=C/C(=O)O | TRPA1 (Homo sapiens, UniProt O75762) | calcium signal, fluorescence | HEK-293T | 10 µM |  | inhibition | > 50%
CSc1nc(N)c2c(F)c(C#N)c(F)c(F)c2n1 | CDC25B | enzyme activity, inhibitor, fluorescence |  | 20 µg/mL |  | inhibition | 55.1%
O=C(/C=C/c1coc2ccccc2c1=O)N1CCN(C(=S)SCc2ccccc2)CC1 | tomato spotted wilt virus | viral infection, half-leaf method | Nicotiana glutinosa | 500 µg/mL |  | inactivation effect | 53.2 ± 5.4%
[64Cu+2].c1ccc(CNCc2ccc(CN3CCCN4CCNCCCN(CC4)CC3)cc2)nc1 | CXCR4 |  | NOD/SCID mouse, U87 and U87-stb-CXCR4 xenografts, pancreas | iv, 60 min, ex vivo |  | tissue uptake | 1.38 ± 0.16 %ID/g
N[C@H]1CCCc2c1[nH]c1ccc(Cl)cc21 | HTR6 (Homo sapiens, UniProt P50406) | ligand displacement, radioligand |  | 10 µM |  | inhibition | 31.6%
O=C1N[C@@H](CO)C[C@@H](O)c2ccccc21 (relative stereo) | PARP1 | enzyme activity, inhibitor |  | 10 µM |  | inhibition | 0%
Oc1cc(O)c2c(c1)O[C@H](c1cc(O)c(O)c(O)c1)[C@H](O)C2 | Si | enzyme activity, inhibitor | rat intestinal brush border vesicles | 10 µM |  | inhibition | 84.6%
C=CC(=O)Nc1cc(Nc2nccc(-c3cn(C)c4ccccc34)n2)c(OCC(F)(F)F)nc1N(C)CCN(C)C | Cytochrome P450 1A2 (CYP1A2, Homo sapiens, UniProt P05177) | enzyme activity, inhibitor | human, liver microsomes | 33.3 µM |  | activity vs control | 78.3%

For quick reference, copied from above:
Structure (SMILES) | target or system | assay | system | setting | how to read | measurement | result
CCN(CC)CCSC(=S)N1CCN(C(=O)/C=C/c2coc3cc(F)ccc3c2=O)CC1 | tomato spotted wilt virus | viral infection, half-leaf method | Nicotiana glutinosa | 500 µg/mL |  | curative effect | 60.6 ± 2.6%
N#CCSc1nc(N)c2c(F)c(C#N)c(F)c(Cl)c2n1 | CDC25B | enzyme activity, inhibitor, fluorescence |  | 20 µg/mL |  | inhibition | 73.8%
CN1C(=O)[C@@H](Cc2ccc(O)cc2)NC(=O)CNC(=O)[C@H](Cc2ccc3ccccc3c2)NC(=O)[C@H](CCCNC(=N)N)NC(=O)[C@H]1CCCNC(=O)c1ccc(CNC(=O)CN2CCN(CC(=O)O)CCN(CC(=O)O)CCN(CC(=O)O)CC2)cc1 [gallium-68 labelled] |  |  | adult reference man, from C57BL/6 mice data, osteogenic cells |  |  | absorbed dose coefficient | 0.00801 mGy/MBq
N#Cc1c(F)c(Cl)c2nc(SCc3ccccc3)nc(N)c2c1F | CDC25B | enzyme activity, inhibitor, fluorescence |  | 20 µg/mL |  | inhibition | 99.7%
